Assay results pooled from the literature.
Numbered parts are unrelated; each lists some results of a single study.
Sequence of UniProt Q14004 (whole entry, looked up): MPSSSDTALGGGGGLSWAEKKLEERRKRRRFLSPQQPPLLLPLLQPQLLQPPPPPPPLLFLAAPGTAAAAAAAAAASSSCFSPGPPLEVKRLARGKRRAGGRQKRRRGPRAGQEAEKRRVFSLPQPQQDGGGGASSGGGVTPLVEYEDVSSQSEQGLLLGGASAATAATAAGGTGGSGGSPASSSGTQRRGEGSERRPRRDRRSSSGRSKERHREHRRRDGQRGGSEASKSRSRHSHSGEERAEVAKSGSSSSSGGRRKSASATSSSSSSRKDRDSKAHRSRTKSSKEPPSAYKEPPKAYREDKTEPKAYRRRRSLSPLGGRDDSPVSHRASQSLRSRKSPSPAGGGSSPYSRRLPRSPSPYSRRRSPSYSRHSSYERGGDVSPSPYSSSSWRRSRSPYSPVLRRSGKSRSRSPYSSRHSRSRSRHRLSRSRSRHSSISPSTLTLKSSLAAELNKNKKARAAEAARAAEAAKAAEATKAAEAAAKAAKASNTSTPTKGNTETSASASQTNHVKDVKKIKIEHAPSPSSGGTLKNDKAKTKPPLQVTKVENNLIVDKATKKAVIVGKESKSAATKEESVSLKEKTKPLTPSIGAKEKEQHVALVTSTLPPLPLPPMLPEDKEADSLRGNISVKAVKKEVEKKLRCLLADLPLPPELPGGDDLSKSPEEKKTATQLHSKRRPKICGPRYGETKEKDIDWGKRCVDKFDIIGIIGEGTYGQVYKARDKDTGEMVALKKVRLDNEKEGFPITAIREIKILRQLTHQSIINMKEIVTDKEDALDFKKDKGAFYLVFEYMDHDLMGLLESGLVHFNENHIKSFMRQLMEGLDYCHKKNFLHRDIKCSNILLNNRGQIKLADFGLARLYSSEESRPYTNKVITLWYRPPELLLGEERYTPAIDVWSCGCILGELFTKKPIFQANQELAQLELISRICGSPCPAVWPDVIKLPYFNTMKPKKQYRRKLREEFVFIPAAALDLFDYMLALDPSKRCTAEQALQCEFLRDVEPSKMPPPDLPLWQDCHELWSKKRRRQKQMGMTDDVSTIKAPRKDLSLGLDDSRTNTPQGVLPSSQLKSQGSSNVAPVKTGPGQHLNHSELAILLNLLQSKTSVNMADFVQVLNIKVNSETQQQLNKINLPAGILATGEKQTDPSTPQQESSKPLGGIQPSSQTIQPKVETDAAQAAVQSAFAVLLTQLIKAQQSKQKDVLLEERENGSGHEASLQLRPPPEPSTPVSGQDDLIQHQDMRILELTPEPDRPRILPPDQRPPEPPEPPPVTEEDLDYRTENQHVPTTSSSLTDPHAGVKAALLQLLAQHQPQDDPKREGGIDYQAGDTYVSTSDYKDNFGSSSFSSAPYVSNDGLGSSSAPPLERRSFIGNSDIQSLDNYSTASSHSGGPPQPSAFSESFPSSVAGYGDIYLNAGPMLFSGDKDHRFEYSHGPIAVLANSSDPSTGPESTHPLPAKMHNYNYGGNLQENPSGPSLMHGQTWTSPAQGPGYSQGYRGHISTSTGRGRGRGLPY
Sequence of UniProt P29597 (whole entry, looked up): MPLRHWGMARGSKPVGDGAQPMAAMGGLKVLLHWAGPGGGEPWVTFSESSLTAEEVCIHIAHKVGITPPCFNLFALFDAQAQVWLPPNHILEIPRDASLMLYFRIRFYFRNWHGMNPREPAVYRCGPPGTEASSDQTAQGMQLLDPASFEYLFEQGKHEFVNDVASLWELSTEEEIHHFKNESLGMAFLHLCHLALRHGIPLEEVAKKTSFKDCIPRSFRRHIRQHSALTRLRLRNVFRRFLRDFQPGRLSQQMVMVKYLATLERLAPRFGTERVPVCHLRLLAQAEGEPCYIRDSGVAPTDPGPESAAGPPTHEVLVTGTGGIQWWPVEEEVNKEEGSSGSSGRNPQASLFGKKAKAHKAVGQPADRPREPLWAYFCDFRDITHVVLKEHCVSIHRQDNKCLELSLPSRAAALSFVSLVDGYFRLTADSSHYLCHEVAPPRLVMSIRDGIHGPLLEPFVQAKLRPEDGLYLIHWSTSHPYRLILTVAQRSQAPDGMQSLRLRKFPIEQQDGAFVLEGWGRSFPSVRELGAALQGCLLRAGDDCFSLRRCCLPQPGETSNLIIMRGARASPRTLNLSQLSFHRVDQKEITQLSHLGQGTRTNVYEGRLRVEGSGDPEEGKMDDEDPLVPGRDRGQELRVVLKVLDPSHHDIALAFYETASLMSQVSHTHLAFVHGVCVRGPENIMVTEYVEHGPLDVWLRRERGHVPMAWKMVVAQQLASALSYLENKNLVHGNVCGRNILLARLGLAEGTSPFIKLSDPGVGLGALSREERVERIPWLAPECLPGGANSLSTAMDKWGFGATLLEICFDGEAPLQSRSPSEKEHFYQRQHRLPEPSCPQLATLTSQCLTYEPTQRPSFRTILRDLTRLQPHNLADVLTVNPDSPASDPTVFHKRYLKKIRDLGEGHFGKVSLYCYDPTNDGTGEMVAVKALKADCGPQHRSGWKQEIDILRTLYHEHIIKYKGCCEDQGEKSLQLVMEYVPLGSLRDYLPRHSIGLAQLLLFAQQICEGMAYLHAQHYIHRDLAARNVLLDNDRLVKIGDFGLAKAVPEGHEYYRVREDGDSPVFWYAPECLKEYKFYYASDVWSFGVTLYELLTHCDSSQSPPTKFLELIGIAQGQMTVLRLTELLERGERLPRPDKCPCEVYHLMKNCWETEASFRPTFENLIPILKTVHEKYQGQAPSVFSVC
Sequence of UniProt Q96SB4 (whole entry, looked up): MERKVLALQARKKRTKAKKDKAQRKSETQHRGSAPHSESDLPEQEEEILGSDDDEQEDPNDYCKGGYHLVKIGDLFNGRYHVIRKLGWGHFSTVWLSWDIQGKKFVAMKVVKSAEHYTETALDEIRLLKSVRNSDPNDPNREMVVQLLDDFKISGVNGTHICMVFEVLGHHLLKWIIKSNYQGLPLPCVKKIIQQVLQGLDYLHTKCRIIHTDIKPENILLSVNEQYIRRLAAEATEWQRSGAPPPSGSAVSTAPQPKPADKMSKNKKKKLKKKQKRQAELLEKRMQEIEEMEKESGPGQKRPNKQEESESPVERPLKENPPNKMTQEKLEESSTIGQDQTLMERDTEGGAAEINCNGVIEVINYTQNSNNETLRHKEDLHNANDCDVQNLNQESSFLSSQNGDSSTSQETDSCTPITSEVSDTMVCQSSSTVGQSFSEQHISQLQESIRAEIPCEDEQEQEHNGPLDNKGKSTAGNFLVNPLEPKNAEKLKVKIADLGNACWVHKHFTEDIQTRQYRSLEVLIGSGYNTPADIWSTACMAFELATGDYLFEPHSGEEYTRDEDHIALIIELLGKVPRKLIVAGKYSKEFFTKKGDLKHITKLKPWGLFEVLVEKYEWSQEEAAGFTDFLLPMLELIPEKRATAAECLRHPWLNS
Sequence of UniProt O75716 (whole entry, looked up): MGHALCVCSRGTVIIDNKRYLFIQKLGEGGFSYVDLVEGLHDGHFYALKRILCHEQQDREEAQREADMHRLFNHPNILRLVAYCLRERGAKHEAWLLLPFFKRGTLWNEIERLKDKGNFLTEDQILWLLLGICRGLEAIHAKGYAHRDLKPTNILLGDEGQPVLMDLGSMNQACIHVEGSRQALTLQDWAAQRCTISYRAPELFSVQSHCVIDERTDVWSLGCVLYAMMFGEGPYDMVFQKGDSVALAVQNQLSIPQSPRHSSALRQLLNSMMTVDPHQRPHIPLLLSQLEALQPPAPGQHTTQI

Set 1
Target: Serine/threonine-protein kinase TAO1 (TAOK1, Homo sapiens, UniProt Q7L7X3)
Sequence of UniProt Q7L7X3 (whole entry, looked up): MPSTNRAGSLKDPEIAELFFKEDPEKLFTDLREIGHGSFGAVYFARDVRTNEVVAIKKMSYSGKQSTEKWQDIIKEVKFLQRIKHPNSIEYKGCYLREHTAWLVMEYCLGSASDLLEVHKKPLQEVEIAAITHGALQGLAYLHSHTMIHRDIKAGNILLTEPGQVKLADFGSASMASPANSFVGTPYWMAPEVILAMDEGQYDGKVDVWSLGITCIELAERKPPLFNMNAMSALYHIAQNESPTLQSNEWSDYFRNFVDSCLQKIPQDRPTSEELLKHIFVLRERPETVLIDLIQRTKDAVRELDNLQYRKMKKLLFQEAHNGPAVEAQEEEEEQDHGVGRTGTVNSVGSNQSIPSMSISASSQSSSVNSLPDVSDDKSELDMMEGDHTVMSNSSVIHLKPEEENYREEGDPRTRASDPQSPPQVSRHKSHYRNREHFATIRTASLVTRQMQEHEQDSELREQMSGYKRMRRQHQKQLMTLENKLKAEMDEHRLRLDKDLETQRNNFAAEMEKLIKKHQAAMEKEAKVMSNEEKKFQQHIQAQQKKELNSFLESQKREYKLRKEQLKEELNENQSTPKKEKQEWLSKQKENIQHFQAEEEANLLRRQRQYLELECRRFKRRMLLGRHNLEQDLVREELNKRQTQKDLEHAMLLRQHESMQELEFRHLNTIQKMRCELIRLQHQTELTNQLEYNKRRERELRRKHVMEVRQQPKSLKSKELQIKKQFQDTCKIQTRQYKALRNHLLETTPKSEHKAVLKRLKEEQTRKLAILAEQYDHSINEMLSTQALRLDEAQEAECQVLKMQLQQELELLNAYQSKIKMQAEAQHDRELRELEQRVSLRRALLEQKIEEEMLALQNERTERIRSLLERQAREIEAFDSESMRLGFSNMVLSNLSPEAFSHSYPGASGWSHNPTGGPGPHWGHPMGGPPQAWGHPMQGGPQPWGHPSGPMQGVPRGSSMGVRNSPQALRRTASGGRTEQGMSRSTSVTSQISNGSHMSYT
Read-out: enzyme activity
Mode: inhibitor
Concentration: 0.5 µM
Reference: control
Quantity: remaining activity
CCOC(=O)c1c(C)[nH]c(/C=C2\C(=O)Nc3ccccc32)c1C: 100%
O=C(CCCc1ccc(-c2ccccc2F)cc1)Nc1ccc(O)cc1: 91.4%
O=C(Nc1cccc(Nc2cc(Nc3cccc(C(F)(F)F)c3)ncn2)c1)C1CC1: 100%
COc1cc2ncnc(Nc3ccc(F)c(Cl)c3)c2cc1OCCCN1CCOCC1: 103%
CN(C)c1ccc(C=C2C(=O)Nc3ccccc32)cc1: 94.7%
COc1cc2nccc(Oc3ccc(NC(=S)NC(=O)c4ccccc4C)cc3)c2cc1OC: 71.3%
Nc1[nH]nc2nc3ccccc3nc12: 101%
COc1ccc(C(=O)Nc2sc3c(c2C(N)=O)CCCC3)cc1OC: 95.5%
NCCNc1ncc(C(N)=O)c(Nc2cccc(C(F)(F)F)c2)n1: 90.6%
N#CC(C#N)=C(N)/C(C#N)=C/c1ccc(O)cc1: 93.2%
Cn1c2ccccc2c2c3c(c4c5ccccc5n(CCC#N)c4c21)CNC3=O: 43.9%
Cc1cccc(-c2[nH]c(C(C)(C)C)nc2-c2ccc3c(c2)OCO3)n1: 97.6%
CC(C)[C@H](CO)Nc1nc(Nc2cc(N)cc(Cl)c2)c2ncn(C(C)C)c2n1: 79.9%
Cc1ccc(NC(=O)c2ccc(CN3CCN(C)CC3)cc2)cc1Nc1nc(-c2cccnc2)cs1: 98.5%
O=S(=O)(c1cccc2cnccc12)N1CCCNCC1: 123%

Set 2
Target: Homeobox protein Hox-B13, full length (HOXB13, Homo sapiens, UniProt Q92826, residues 1-284)
Sequence of UniProt Q92826 (whole entry, looked up): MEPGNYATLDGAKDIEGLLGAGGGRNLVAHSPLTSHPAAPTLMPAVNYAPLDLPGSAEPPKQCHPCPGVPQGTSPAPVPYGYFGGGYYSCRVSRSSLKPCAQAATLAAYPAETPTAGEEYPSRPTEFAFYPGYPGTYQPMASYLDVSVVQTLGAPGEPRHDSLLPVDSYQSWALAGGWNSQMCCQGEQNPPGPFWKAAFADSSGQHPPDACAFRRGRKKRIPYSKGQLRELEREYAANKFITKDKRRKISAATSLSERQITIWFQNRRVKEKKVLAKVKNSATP
Technique: protein-binding microarray
Form: hairpin DNA
Matrix: in vitro
Concentration: not given
Notes: whole hairpin DNA, median over replicate spots
Reference: not given
Reading: higher = stronger binding
Quantity: median fluorescence
GAGGCCGTTTTACGAGGGCCTCCTGGCCCTCGTAAAACGGCCTCACACTC (5mC at 31): 5470 a.u.
GAGGCCGTTTTCGGAGGGCCTCCTGGCCCTCCGAAAACGGCCTCACACTC (5mC at 12): 4000 a.u.
GAGGCCGTTATACGAGGGCCTCCTGGCCCTCGTATAACGGCCTCACACTC: 4360 a.u.
GAGGCCATTTTACGAGGGCCTCCTGGCCCTCGTAAAATGGCCTCACACTC: 5210 a.u.
GAGGCCGTTTTACGACGGCCTCCTGGCCGTCGTAAAACGGCCTCACACTC (5mC at 28): 4570 a.u.
GAGGCCGTTTTCGTGGGGCCTCCTGGCCCCACGAAAACGGCCTCACACTC (5mC at 12): 4130 a.u.
GAGGCCGTTTTATTGCGGCCTCCTGGCCGCAATAAAACGGCCTCACACTC: 4600 a.u.
GAGGCCGTTTAATTGGGGCCTCCTGGCCCCAATTAAACGGCCTCACACTC: 5050 a.u.

Set 3
Compound: O=C(NC[C@@H]1[C@H]2CN(C(=O)OCc3cc(C(F)(F)F)cc(C(F)(F)F)c3)C[C@@H]12)c1ccc2[nH]nnc2c1
Read-out: cell-free assay
Technique: competition with immobilised ligand
Concentration: 1 µM
Quantity: remaining binding
FLT3 (Homo sapiens, UniProt P36888, D835H): 100%
HCK (Homo sapiens, UniProt P08631): 100%
CDK13 (Homo sapiens, UniProt Q14004): 85%
EGFR (Homo sapiens, UniProt P00533, T790M): 78%
NEK5 (Homo sapiens, UniProt Q6P3R8): 94%
MAP2K4 (Homo sapiens, UniProt P45985): 95%
Non-receptor tyrosine-protein kinase TYK2, JH1 (TYK2, Homo sapiens, UniProt P29597): 100%
MAP3K1 (Homo sapiens, UniProt Q13233): 71%
SRPK1 (Homo sapiens, UniProt Q96SB4): 81%
Receptor-type tyrosine-protein kinase FLT3, autoinhibited (FLT3, Homo sapiens, UniProt P36888): 91%
STK16 (Homo sapiens, UniProt O75716): 100%
CDK11A (Homo sapiens, UniProt Q9UQ88): 100%

Mixed results
Technique: cross-linking MS
Matrix: cell fractions
ATP2B1 (Homo sapiens, UniProt P20020) — cross-linked residues (CGN (Homo sapiens, UniProt Q9P2M7); together with: DSSO): S642 to K384
ZC3H13 (Homo sapiens, UniProt Q5T200) — cross-linked residues (ABHD10 (Homo sapiens, UniProt Q9NUJ1); together with: DMTMM): K285 to D62
ERLIN1 (Homo sapiens, UniProt O75477) — cross-linked residues (ERLIN2 (Homo sapiens, UniProt O94905); together with: DHSO): E221 to E226
DOCK7 (Homo sapiens, UniProt Q96N67) — cross-linked residues (SIKE1 (Homo sapiens, UniProt Q9BRV8); together with: DSSO): S1035 to K7

Excerpt of the above (set 2):
GAGGCCGTTTTACGAGGGCCTCCTGGCCCTCGTAAAACGGCCTCACACTC (5mC at 31): 5470 a.u.
GAGGCCGTTTTCGGAGGGCCTCCTGGCCCTCCGAAAACGGCCTCACACTC (5mC at 12): 4000 a.u.
GAGGCCGTTATACGAGGGCCTCCTGGCCCTCGTATAACGGCCTCACACTC: 4360 a.u.
